Measured values collected from several papers.
Each line is one published result; not all experiments were run side by side. Values joined by “and” are separate records of one study, mostly repeats; a detail may differ.
HTR1B: 5-hydroxytryptamine receptor 1B (HTR1B, Homo sapiens, UniProt P28222)
Chain of UniProt P28222 (whole entry, looked up): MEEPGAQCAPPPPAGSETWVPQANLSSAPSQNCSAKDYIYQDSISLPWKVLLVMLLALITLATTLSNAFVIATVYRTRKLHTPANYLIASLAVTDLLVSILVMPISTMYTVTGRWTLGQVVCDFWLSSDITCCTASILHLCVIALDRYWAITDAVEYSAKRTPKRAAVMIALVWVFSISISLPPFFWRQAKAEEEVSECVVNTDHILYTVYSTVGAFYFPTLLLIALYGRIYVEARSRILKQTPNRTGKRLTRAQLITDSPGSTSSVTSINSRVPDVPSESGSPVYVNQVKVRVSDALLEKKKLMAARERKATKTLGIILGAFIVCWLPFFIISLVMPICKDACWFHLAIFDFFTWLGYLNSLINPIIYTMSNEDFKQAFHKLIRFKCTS
STK38: Serine/threonine-protein kinase 38 (STK38, Homo sapiens, UniProt Q15208)
Chain of UniProt Q15208 (whole entry, looked up): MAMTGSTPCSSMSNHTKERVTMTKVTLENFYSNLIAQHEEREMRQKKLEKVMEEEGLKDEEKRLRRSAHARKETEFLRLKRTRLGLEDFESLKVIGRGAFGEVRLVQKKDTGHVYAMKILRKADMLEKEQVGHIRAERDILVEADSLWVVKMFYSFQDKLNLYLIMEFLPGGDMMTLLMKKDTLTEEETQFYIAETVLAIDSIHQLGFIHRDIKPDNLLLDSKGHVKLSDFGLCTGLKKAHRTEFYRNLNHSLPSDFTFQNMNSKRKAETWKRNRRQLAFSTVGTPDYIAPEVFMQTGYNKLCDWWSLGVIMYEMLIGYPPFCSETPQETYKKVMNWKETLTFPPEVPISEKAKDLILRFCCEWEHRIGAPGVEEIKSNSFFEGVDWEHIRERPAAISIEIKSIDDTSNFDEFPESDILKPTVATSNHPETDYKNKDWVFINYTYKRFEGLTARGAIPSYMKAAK
USP49 ZnF-UBD domain: Ubiquitin carboxyl-terminal hydrolase 49, ZnF-UBD domain (USP49, Homo sapiens, UniProt Q70CQ1)
Chain of UniProt Q70CQ1 (whole entry, looked up): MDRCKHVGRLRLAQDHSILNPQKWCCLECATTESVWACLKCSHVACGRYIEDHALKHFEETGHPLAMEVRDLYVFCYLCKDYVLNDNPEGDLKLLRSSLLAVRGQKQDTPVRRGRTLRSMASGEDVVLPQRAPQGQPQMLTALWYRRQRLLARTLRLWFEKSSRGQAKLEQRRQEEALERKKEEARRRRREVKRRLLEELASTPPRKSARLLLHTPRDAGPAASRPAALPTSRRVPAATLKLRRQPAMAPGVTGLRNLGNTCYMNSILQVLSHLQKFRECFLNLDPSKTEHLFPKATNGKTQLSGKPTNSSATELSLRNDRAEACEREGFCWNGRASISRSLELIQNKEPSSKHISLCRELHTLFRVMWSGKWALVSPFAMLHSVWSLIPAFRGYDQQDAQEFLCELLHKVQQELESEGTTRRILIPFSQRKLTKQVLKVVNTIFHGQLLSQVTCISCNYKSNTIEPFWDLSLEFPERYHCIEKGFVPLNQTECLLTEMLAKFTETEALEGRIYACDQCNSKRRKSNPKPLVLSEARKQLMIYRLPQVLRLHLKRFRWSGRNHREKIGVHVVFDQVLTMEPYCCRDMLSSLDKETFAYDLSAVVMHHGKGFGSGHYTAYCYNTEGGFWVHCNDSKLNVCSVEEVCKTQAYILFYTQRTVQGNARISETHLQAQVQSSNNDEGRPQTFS
SIRT6: NAD-dependent protein deacylase sirtuin-6 (SIRT6, Homo sapiens, UniProt Q8N6T7)
Chain of UniProt Q8N6T7 (whole entry, looked up): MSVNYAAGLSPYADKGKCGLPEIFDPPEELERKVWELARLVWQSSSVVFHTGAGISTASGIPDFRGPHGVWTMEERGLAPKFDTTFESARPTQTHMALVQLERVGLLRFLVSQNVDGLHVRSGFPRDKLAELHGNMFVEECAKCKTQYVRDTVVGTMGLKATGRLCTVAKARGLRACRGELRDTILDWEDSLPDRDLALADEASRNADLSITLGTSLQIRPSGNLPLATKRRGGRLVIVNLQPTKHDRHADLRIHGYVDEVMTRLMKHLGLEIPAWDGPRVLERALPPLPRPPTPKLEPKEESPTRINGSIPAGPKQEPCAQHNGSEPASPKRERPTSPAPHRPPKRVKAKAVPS
SLC22A12: Solute carrier family 22 member 12 (SLC22A12, Homo sapiens, UniProt Q96S37)
Chain of UniProt Q96S37 (whole entry, looked up): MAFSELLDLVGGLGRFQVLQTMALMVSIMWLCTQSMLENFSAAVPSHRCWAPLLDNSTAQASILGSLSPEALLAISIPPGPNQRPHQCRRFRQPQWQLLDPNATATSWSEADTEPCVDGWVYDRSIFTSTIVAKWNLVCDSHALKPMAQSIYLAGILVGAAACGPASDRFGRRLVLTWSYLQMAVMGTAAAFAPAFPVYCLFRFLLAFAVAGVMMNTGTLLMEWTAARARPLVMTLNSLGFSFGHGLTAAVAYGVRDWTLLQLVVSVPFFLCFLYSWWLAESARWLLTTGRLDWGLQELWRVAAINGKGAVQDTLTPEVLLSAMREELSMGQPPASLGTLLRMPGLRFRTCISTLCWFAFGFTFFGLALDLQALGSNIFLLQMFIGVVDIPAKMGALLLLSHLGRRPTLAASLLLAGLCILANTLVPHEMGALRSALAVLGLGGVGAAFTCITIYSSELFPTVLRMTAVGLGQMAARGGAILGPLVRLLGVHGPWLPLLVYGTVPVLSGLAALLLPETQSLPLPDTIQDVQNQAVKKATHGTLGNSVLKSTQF
Chain of UniProt P32239 (whole entry, looked up): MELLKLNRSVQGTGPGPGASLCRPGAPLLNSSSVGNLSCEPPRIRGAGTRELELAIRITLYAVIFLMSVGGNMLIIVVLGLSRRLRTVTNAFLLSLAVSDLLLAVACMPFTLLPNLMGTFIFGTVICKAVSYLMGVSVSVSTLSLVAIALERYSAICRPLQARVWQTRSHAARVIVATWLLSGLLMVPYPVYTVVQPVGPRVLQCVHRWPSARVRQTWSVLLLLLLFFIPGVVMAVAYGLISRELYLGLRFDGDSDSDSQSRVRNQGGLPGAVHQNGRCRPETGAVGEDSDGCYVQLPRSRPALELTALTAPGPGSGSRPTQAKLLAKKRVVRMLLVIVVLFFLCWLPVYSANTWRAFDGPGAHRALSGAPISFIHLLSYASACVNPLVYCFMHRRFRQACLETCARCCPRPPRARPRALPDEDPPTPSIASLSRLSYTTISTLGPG
Chain of UniProt P10721 (whole entry, unmodified, looked up): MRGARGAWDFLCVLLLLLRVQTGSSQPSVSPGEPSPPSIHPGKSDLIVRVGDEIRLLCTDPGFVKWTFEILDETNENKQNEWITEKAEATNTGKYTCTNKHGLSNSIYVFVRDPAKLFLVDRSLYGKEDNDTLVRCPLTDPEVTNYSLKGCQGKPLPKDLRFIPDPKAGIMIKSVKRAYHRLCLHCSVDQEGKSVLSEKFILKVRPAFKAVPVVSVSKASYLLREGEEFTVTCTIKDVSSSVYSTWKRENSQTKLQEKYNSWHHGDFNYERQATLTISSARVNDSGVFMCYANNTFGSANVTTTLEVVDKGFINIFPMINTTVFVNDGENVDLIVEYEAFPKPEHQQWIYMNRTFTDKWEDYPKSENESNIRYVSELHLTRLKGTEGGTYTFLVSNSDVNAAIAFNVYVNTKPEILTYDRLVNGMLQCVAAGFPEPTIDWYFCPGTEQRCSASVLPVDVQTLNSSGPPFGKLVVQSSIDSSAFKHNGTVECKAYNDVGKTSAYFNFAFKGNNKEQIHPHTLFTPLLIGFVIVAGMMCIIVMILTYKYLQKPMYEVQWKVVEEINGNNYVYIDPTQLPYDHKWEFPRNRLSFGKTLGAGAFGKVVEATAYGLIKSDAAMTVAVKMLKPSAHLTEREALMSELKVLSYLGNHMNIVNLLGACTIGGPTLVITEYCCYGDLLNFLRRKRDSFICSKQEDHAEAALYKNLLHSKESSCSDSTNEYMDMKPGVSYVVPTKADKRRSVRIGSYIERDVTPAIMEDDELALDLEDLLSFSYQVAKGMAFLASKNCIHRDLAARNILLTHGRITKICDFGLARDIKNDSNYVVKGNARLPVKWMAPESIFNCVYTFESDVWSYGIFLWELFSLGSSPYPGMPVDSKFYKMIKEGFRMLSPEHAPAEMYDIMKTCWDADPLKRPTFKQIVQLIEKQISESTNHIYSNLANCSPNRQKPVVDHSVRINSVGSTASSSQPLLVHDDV
Chain of UniProt P51685 (whole entry, looked up): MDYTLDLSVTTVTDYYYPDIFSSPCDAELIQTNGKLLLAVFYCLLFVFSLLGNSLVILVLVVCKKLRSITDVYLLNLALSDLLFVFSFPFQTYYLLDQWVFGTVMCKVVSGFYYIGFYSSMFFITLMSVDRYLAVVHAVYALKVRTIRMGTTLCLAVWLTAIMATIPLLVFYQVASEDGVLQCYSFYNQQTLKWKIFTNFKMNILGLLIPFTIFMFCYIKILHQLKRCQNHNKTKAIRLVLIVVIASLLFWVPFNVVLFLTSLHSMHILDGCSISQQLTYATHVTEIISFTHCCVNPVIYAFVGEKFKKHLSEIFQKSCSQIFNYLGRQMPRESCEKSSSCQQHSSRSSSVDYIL
Chain of UniProt Q8N884 (whole entry, looked up): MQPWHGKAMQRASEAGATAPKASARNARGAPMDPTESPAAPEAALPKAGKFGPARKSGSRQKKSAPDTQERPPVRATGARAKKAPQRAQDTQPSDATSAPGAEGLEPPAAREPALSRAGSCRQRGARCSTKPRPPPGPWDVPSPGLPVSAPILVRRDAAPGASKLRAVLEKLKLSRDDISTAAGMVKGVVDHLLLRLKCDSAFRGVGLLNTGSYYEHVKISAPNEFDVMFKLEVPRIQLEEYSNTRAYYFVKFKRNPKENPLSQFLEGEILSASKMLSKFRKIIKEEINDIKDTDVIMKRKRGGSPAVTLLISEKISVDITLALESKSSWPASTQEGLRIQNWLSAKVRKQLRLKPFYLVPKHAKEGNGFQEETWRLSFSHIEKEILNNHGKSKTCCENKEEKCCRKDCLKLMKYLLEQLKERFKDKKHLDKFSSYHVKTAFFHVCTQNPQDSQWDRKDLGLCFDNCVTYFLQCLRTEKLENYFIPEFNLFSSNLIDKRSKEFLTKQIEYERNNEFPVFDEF

`[2H]c1cc(C)c(NC(=O)c2cnc(Nc3cc(N4CCCCC4)nc(C)n3)s2)c(Cl)c1` has an inhibition of under 30% (Mast/stem cell growth factor receptor Kit (KIT, Homo sapiens, UniProt P10721, D816E); 0.01 µM).
With `CCN1CCN(Cc2ccc(NC(=O)c3ccc(C)c(Oc4ccnc5[nH]ccc45)c3)cc2C(F)(F)F)CC1` the inhibition was under 35% (Acylglycerol kinase, mitochondrial (Homo sapiens, UniProt Q53H12); KiNativ; Huh-7 live cells; 10 µM).
The inhibition of `c1cncc(OC[C@H]2CN(CCN3CCc4ccccc43)CCO2)c1` is reported as -5.9% (HTR1B; radioligand binding; concentration not given, with: [3H]5-CT).
With `CN1CCN(c2cc(-c3ccncc3)c(-c3ccc4ccccc4c3)nn2)CC1` the inhibition was 18.1% (Prostaglandin E2 receptor EP4 subtype (PTGER4, Homo sapiens, UniProt P35408); antagonist, FLIPR; 10 µM).
`Clc1cncc(OC[C@@H]2CN(CCN3CCc4ccccc43)CCO2)c1` has an inhibition of 4.6% (HTR1B; radioligand binding; concentration not given, with: [3H]5-CT).
`Cc1cc(-c2ccnc3[nH]cc(F)c23)cc(F)c1[C@@]1(O)[C@H](C)CN(C2CCS(=O)(=O)CC2)C[C@@H]1C` gave an inhibition of 11.8% (STK38; ATP probe binding, KiNativ, refers to: Lys2 site; HEK293T cell lysate; 1 µM).
`Cc1ccc(CNC(=S)N/N=C/c2cn(S(=O)(=O)c3ccc(C)cc3)c3ccccc23)cc1` gave an inhibition of 85.4% (mushroom tyrosinase; enzyme activity, inhibitor; 0.5 mM, with: L-DOPA substrate).
The inhibition of `COc1ccc(F)cc1C(=O)NCc1ccc(-c2nn([C@@H](C)C(F)(F)F)c(N)c2C(N)=O)cc1` is reported as 16.1% (Tyrosine-protein kinase CSK (CSK, Homo sapiens, UniProt P41240); probe binding, competitive chemoproteomics; human PBMCs; 0.1 µM).
`Cc1cc2c(cc1N1C(=O)c3cccc4c(CCCO)ccc(c34)C1=O)n(C)c(=O)n2C` (racemic) has an inhibition of 91% (Bromodomain-containing protein 3, BD2 (BRD3, Homo sapiens, UniProt Q15059); binding, BROMOscan binding; 100 nM).
The inhibition of `CC[C@]12CCCN3CCc4c([nH]c5ccccc45)[C@]31N(Cc1cn(Cc3ccccc3)nn1)C(=O)C2` is reported as 59% (C-C chemokine receptor type 8 (CCR8, Homo sapiens, UniProt P51685); beta-arrestin recruitment, antagonist, PathHunter chemiluminescence; 20 µM, with: agonist at EC80).
The inhibition of `O=C(CN1CCO[C@H](COc2cccnc2)C1)N1CCc2ccccc21` is reported as 10.8% (HTR1B; radioligand binding; concentration not given, with: [3H]5-CT).
`NS(=O)(=O)c1ccc(NCC(=O)O)cc1` gave a Kd of over 1 mM (USP49 ZnF-UBD domain).
`O=C1c2ccccc2CCN1CCCCN1CCN(c2ccccn2)CC1` has an inhibition of 60.1% (HTR1B; radioligand binding; concentration not given, with: [3H]5-CT).
For `CN(C(=O)n1cnc(-c2ccc[n+]([O-])c2)c1)C1CCCCC1`, the inhibition was 12% (Gastrin/cholecystokinin type B receptor (CCKBR, Homo sapiens, UniProt P32239); 10 µM).
`Cc1ccc(S(=O)(=O)n2cc(/C=N/NC(=S)Nc3cccc([N+](=O)[O-])c3)c3ccccc32)cc1` gave an inhibition of 92.6% (mushroom tyrosinase; enzyme activity, inhibitor; 0.5 mM, with: L-DOPA substrate).
For `COc1cc(C(=O)NS(=O)(=O)c2ccccc2C)ccc1Cc1cn(C)c2ccc(NC(=O)OC3CCCC3)cc12`, the inhibition was 84.7% and 79.6% and 85.6% and 88.3% and 86.1% (Volume-regulated anion channel subunit LRRC8C, part LRRC8A IL1 chimera (LRRC8C, Homo sapiens, UniProt Q8TDW0, L136K); ion current, inhibitor, whole-cell patch clamp; HCT LRRC8-/- cells; 1 µM, +100 mV).
For `O=C(O)CCc1cc(C(=O)c2ccc(OC3CCCC3)cc2O)ccc1OCc1ccc2c(=O)[nH]oc2c1`, inhibition read “no inhibition” (Transcription factor 7-like 2 (Homo sapiens, UniProt Q9NQB0); DNA binding TCF consensus, biotin-streptavidin pulldown; HCT-116 nuclear extract; 100 µM).
With `Cc1nn(-c2nc3ccccc3s2)c(O)c1C(c1ccccc1C(=O)O)c1c(C)nn(-c2nc3ccccc3s2)c1O` the inhibition was 88.3% (Cyclic GMP-AMP synthase (CGAS, Homo sapiens, UniProt Q8N884); enzyme activity, inhibitor, pyrophosphatase-coupled; 200 µM, 1.5 h, with: HT-DNA).
`Cc1ccc(S(=O)(=O)n2cc(/C=N/NC(=S)Nc3ccc(Br)cc3)c3ccccc32)cc1` gave an inhibition of 88.5% (mushroom tyrosinase; enzyme activity, inhibitor; 0.5 mM, with: L-DOPA substrate).
`OCCCN1CC[C@@H]2C[C@H]1c1cc(-c3ccc(C(F)(F)F)cc3)ccc12` gave an inhibition of under 50% (HTR1B; radioligand binding, PDSP competition binding; 10 µM).
The inhibition of `Cc1ccc(C(=O)Nc2ccc(S(=O)(=O)O)c3cc(S(=O)(=O)O)cc(S(=O)(=O)O)c23)cc1NC(=O)c1cccc(NC(=O)Nc2cccc(C(=O)Nc3cc(C(=O)Nc4ccc(S(=O)(=O)O)c5cc(S(=O)(=O)O)cc(S(=O)(=O)O)c45)ccc3C)c2)c1` is reported as under 5% (SIRT6; enzyme activity, inhibitor; 10 µM, with: myristoylated substrate).
`Cc1ccc(S(=O)(=O)n2cc(/C=N/NC(=S)Nc3c(C)cccc3C)c3ccccc32)cc1` has an inhibition of 92.7% (mushroom tyrosinase; enzyme activity, inhibitor; 0.5 mM, with: L-DOPA substrate).
For `O=C(NS(=O)(=O)c1ccc(C(F)(F)F)cc1)c1cc2ccccc2n1Cc1ccc(Br)c2ccccc12`, the inhibition was -18.9% and -13.2% (SLC22A12; uric acid uptake, inhibitor; HEK293 transiently expressing URAT1; 10 µM, with: [14C]uric acid).
The inhibition of `Clc1cccc(OC[C@@H]2CN(CCN3CCc4ccccc43)CCO2)c1` is reported as 32.6% (HTR1B; radioligand binding; concentration not given, with: [3H]5-CT).
`CC[C@@H]1[C@H](F)C(=O)N[C@@H]1COc1nccc2cc(C(N)=O)c(OC)cc12` gave an inhibition of 5.4% (STK38; ATP-site probe binding, ActivX profiling; THP-1 cell lysate; 0.04 mM, Lys2 site).
For `COc1cc2c(cc1OC)C(=O)C(CC1CCN(Cc3ccccc3)CC1)C2` (centres unmarked), the inhibition was -3.2% (HTR1B; radioligand binding; concentration not given, with: [3H]5-CT).
For `O=C(NO)c1ccc(CN2CCCCc3ccccc32)c(F)c1`, the inhibition was -4.91% (Sodium-dependent serotonin transporter (SLC6A4, Homo sapiens, UniProt P31645); radioligand binding, PDSP radioligand binding; 10 µM).
`O=C(Nc1cccc2c(=O)cc(-c3nnn[nH]3)oc12)c1ccc(OCCCCc2ccccc2)cc1` has an inhibition of 59.6% and 42.9% and 64.2% and 45.7% (Volume-regulated anion channel subunit LRRC8C, part LRRC8A IL1 chimera (LRRC8C, Homo sapiens, UniProt Q8TDW0, E6A); ion current, inhibitor, whole-cell patch clamp; HCT LRRC8-/- cells; 0.3 µM, +100 mV).
With `O=C1CC(CCNC(=S)NCCCC[C@H](NS(=O)(=O)c2cccc(F)c2)C(=O)N[C@@H](Cc2c[nH]c3ccccc23)C(=O)NC2CCC2)=NO1` the inhibition was under 0% (SIRT6; demyristoylase activity; 10 µM, with: myristoylated peptide substrate and NAD+ 500 µM).
With `C#Cc1cc(-c2cc(Nc3nc(N[C@@H](C)c4ccc(F)cn4)ncc3Cl)n[nH]2)ccc1C=O` the inhibition was 7.87% (Dual specificity protein kinase TTK (TTK, Homo sapiens, UniProt P33981); enzyme activity, inhibitor; 0.2 µM).
The inhibition of `[2H]c1cc(C)c(NC(=O)c2cnc(Nc3cc(N4CCC(O)CC4)nc(C)n3)s2)c(Cl)c1` is reported as over 50% (Macrophage colony-stimulating factor 1 receptor (CSF1R, Homo sapiens, UniProt P07333); 0.001 µM).
`Cc1cc(-c2ccnc3[nH]cc(F)c23)cc(F)c1[C@@]1(O)[C@H](C)CN(C(=O)CN)C[C@@H]1C` has an inhibition of 15.7% (STK38; ATP probe binding, KiNativ, refers to: Lys1 site; HEK293T cell lysate; 1 µM).
With `O=C(O)Cn1cnc2c(oc3ccccc32)c1=O` the Kd was over 1 mM (USP49 ZnF-UBD domain).
`COc1cccc(OC[C@@H]2CN(CCN3CCc4ccccc43)CCO2)c1` gave an inhibition of 31.6% (HTR1B; radioligand binding; concentration not given, with: [3H]5-CT).
With `COc1cc(-c2cc(C(C)=O)n3ccccc23)cc(OC)c1Cn1ccnc1` the inhibition was 5.34% (Bromodomain-containing protein 3, BD1 (BRD3, Homo sapiens, UniProt Q15059); 1 µM).
With `O=C(O)CSc1nnc(Br)n1-c1ccc(C2CC2)c2ccccc12` the inhibition was 103% (SLC22A12; uric acid uptake, inhibitor; HEK293 transiently expressing URAT1; 20 µM, with: [14C]uric acid).
For `COc1ccc2c(c1)CN(CCCN1CCN(c3ccccc3OC)CC1)C2=O`, the inhibition was 42.5% (HTR1B; radioligand binding; concentration not given, with: [3H]5-CT).
`Clc1ccc(-c2cn[nH]c2)s1` gave an inhibition of over 50% (Dual specificity tyrosine-phosphorylation-regulated kinase 1A (DYRK1A, Homo sapiens, UniProt Q13627); enzyme activity; 10 µM).
